Measurements from different studies.
Each line is one published result; not all experiments were run side by side.
RAF1: RAF proto-oncogene serine/threonine-protein kinase (RAF1, Homo sapiens, UniProt P04049)
UCHL1: Ubiquitin carboxyl-terminal hydrolase isozyme L1 (UCHL1, Homo sapiens, UniProt P09936)
Sequence of UniProt P09936 (whole entry, looked up): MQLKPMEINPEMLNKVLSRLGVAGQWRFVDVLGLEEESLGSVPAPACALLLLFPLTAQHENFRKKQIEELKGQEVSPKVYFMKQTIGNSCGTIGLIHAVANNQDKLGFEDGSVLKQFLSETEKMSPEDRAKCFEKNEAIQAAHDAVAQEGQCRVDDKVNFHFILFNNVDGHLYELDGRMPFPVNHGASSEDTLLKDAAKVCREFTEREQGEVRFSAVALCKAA

[2H]c1cc(C)c(NC(=O)c2cnc(Nc3cc(N4CCCCC4)nc(C)n3)s2)c(Cl)c1 — inhibition (RAF1; 0.01 µM): < 30%
COc1ccc(-c2ccc3c(N4CCOC[C@@H]4C)nc(N4CCOC[C@@H]4C)nc3n2)cc1COC(=O)CCOCCOCCOCCONC(=O)c1ccc(F)c(F)c1Nc1ccc(I)cc1F — inhibition (RAF1 (Homo sapiens, UniProt P04049, Y340D/Y341D); kinase activity, inhibitor; 2.5 µM): inhibited
COc1cc(F)ccc1-c1ncnc(Nc2cccc(C[S@](C)(=N)=O)c2)n1 — remaining activity (RAF1; kinase activity; 10 µM, added: 10 µM ATP): 91%
[2H]c1cc(C)c(NC(=O)c2cnc(Nc3cc(N4CCC(O)CC4)nc(C)n3)s2)c(Cl)c1 — inhibition (RAF1; 0.001 µM): < 50%
O=C(NC1CCC1)c1ccc2nc(-c3cccc(NS(=O)(=O)NCCN4CCCCC4)c3)cn2c1 — remaining activity (RAF1; enzyme activity; 10 µM): 100%
C=CC(=O)N1CCC(COCC(=O)N2CCN(c3nc(-c4cnc(N)nc4C(F)F)nc(N4CCOC[C@@H]4C)n3)CC2)CC1 — remaining binding (RAF1; KINOMEscan; 1 µM): 100%
CSCCC(=O)N(C)CC1CCCN(CCc2cccc(C(F)(F)F)c2)C1 (stereo not drawn) — inhibition (Trypanosoma cruzi; reporter translation, Renilla luciferase mRNA translation; cell-free extract; 40 µM; reference: DMSO): -2.9%
Cc1cc(Nc2cc(N3CCN(C)CC3)nc(Sc3ccc(NC(=O)C4CC4)cc3)n2)[nH]n1 — remaining activity (RAF1; kinase activity, KinaseProfiler; 0.03 µM, species human; reference: control): 95%
N#CC(=Cc1ccc(OC(F)F)cc1)C(=O)Nc1nccs1 — labelling (UCHL1; covalent, intact protein LC-MS; 12.5 µM): 21.3%
CC/C(=N\NC(=O)NCc1cccc(O)c1)c1ccc(O)c(C)c1O — inhibition (RAF1; kinase activity; 0.1 µM): 5.5%
CNS(=O)(=O)Nc1nccc(Cc2c(C)c3ccc(Oc4ncccn4)cc3oc2=O)c1F — inhibition (RAF1; 10 µM): 82%
Cc1ccc(S(=O)(=O)c2nc(-c3ccc(F)cc3)oc2SC(C)C)cc1 — labelling (UCHL1; covalent, intact protein LC-MS; 12.5 µM): 13.6%

Repeated from above:
Cc1ccc(S(=O)(=O)c2nc(-c3ccc(F)cc3)oc2SC(C)C)cc1 — labelling (UCHL1; covalent, intact protein LC-MS; 12.5 µM): 13.6%
